Published values of several laboratories.
Each line is one published result; not all experiments were run side by side. ± gives the spread as reported.

CC(=O)NCCN(CCC(=O)NCCN(CCC(=O)NCCN(CCC(=O)NCCC(N)=O)C(=O)[C@@H](N)CCCNC(=N)N)C(=O)[C@@H](N)CCCCN)C(=O)[C@@H](N)Cc1ccccc1 — binding enthalpy ΔH° (HIV-1 TAR RNA; concentration not given, 25 °C): -15.8 ± 0.263 kcal/mol
CNCc1ccc2c(c1)N(C(=O)OCc1c(F)c(F)c(F)c(F)c1F)[C@H](CNC(=N)N)[C@H]2NC(=O)C(=O)Nc1ccc(Cl)c(F)c1 — IC50 (HIV-1; pseudovirus infection, Env pseudovirus neutralisation; TZM-bl, clade A): 2.08 µM
CCCCCCCCCCCCCCCC(=O)N[C@@H](CCC(=O)NCCOCCOCCC(=O)NCCOCCOCCC(=O)NCCCC[C@H](NC(=O)[C@H](CC(=O)O)NC(=O)[C@H](CC(C)C)NC(=O)[C@H](Cc1ccc(O)cc1)NC(=O)[C@H](CCCCN)NC(=O)[C@H](CO)NC(=O)[C@H](Cc1ccc(O)cc1)NC(=O)[C@H](CC(=O)O)NC(=O)[C@H](CO)NC(=O)[C@@H](NC(=O)[C@H](Cc1ccccc1)NC(=O)[C@@H](NC(=O)CNC(=O)[C@H](CCC(N)=O)NC(=O)[C@@H](CO)NC(=O)[C@@H](N)Cc1c[nH]cn1)[C@@H](C)O)[C@@H](C)O)C(=O)N[C@@H](CCCNC(=N)N)C(=O)N[C@@H](CCCNC(=N)N)C(=O)N[C@@H](C)C(=O)N[C@@H](CCC(N)=O)C(=O)N[C@@H](CC(=O)O)C(=O)N[C@@H](Cc1ccccc1)C(=O)N[C@H](C(=O)N[C@@H](CCC(N)=O)C(=O)N[C@@H](Cc1c[nH]c2ccccc12)C(=O)N[C@@H](CC(C)C)C(=O)N[C@@H](CC(C)C)C(=O)N[C@@H](CC(N)=O)C(=O)N[C@H](C(=O)NCC(=O)NCC(=O)N1CCC[C@H]1C(=O)N[C@@H](CO)C(=O)N[C@@H](CO)C(=O)NCC(=O)N[C@@H](C)C(=O)N1CCC[C@H]1C(=O)N1CCC[C@H]1C(=O)N1CCC[C@H]1C(=O)N[C@@H](CO)C(N)=O)[C@@H](C)O)C(C)C)C(=O)O — Cmax (rhesus monkey, male, plasma; subcutaneous, 300 µg/kg, day 1, toxicokinetics, mean): 602 ng/mL
CNCc1ccc2c(c1)C[C@H](CNC(=N)N)[C@H]2NC(=O)C(=O)Nc1ccc(Cl)c(F)c1 — IC50 (Human immunodeficiency virus 1; viral infection, Env pseudovirus; TZM-bl, 6405.v4.c34 clade D): 6.01 µM
CC(=O)NCCN(CC(=O)NCCN(CC(=O)NCCN(CC(=O)NCCC(N)=O)C(=O)C[C@@H](N)CCCCN)C(=O)C[C@@H](N)Cc1ccccc1)C(=O)C[C@@H](N)Cc1ccccc1 — binding entropy term TΔS° (HIV-1 TAR RNA; concentration not given, 25 °C): 1.46 ± 0.167 kcal/mol
C[C@H](Nc1ncnc(N)c1C#N)c1c(-c2ccccc2)[nH]c2c(Cl)cccc2c1=O — IC50 (B-cell lymphoma cell lines; cell proliferation, CellTiter-Glo; 72 h, highest of 23 cell lines): > 20 µM
